Results from different studies.
Parts stem from different laboratories: compare values within a part only. Substitutions count along the parent as printed.

Set 1
Target: CEP164, C-terminal peptide (human)
Technique: DHFR complementation, deep sequencing
Matrix: yeast
Setting: single substitutions, model-inferred values
Baseline: wild type
Direction: higher = weaker binding
Starting sequence: PDZK1, PDZ domain 2 (human); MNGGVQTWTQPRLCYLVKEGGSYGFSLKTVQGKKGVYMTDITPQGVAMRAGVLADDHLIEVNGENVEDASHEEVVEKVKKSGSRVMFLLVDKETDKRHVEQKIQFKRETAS; partner HNRVKVYRF
Substitution	binding free energy change
F87A	1.41 kcal/mol
T42F	0.441 kcal/mol
K80E	0.503 kcal/mol
E64V	0.0109 kcal/mol
V30Y	0.182 kcal/mol
W8F	-0.131 kcal/mol
V90P	1.01 kcal/mol
K28S	-0.241 kcal/mol

Set 2
Target: RNA binding protein fox-1 homolog 2, RRM domain, GST-SBP tag (RBFOX2, Homo sapiens, UniProt O43251-10, residues 100-194)
Technique: RNA Bind-n-Seq
Molecule type: RNA
Matrix: in vitro
Concentration: 365 nM
Setting: natural RNA segment, single round, ends assumed
Baseline: no-protein control
Direction: higher = stronger binding
Residues (chain): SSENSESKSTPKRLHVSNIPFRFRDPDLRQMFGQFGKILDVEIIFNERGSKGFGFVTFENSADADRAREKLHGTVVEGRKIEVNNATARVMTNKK
Strand	RBNS enrichment (R)
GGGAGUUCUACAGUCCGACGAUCGCUGAGAGCACUGGUGGGUUUGCAGGAGGCUGGGUGCUUCAGCCUACCCUUCCCCUUCCCCUCCCUUCCCUCUGCAAGGCUCAAGCCUGGUUUGCACUCAGUGUAGAAGAUGGAAUUCUCGGGUGCCAA	0.406
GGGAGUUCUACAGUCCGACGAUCACUCUAUUUAACCUUGGACACACUAAUAAGGUUUUAUUUUGAUUGUGUUCGUUUCCCCCCCCCCAAUAGUAAAAUUUCUCCUCCUUUAACUCCUCCUACCCCCCAAGGUAUGGAAUUCUCGGGUGCCAA	0.833
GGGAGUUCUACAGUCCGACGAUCAUGUUCCUCAGUCGCCCAGUAUGUGAAAGGAGAUAUGAGAGGAGACAAAUGAGUUGAUGGUCUAAAUUAUAAGAUUUGUGUCACAUUAUCUUGAUGCCAGUUUGCCAAAUUGGAAUUCUCGGGUGCCAA	1.62
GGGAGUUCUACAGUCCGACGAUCUCUCCAUUCUCCAUGUCCAAAAACUUGCUGUCAGUCCAGUUUUUAAUCAGUUUUCUCCUUGAGGCUUGAUCUCCCAUUUCUCUCAUCCCAUUAUAGCUUUUCAUGUAGAUUGGAAUUCUCGGGUGCCAA	0.651
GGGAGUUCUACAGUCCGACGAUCAAAUAAAAAGUAUAAACAUCACUGCACUGUGACUGGUGGGAAAAACUGACAGUUUCCUCUUUGCACAUGUUUAACAUUUGGCUGUUAUAAUAUAUGGUCCUCGGUUGGGGUGGAAUUCUCGGGUGCCAA	0.599
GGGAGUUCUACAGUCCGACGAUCUUAGAUCCUGAAAAUGAAAGUGAAGAAGAAUGAGACAGCAAAGCAAGCCGGUCAAACUAUAUAAACUCUGGCUCACCUUGCCCAGUGGUGAGGGCUGCCUCUGUGCCAGGUGGAAUUCUCGGGUGCCAA	1
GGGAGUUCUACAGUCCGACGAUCAAGGUAAGGAGACAUCCUCUUCGACACCGCUGUUGACCGAGGAGCUCAGGGCCACUUUGAGUGUGAUGAGAUACCCAGGAACACGUGUGCCCACAGCUGAAGUUUUACAUUGGAAUUCUCGGGUGCCAA	0.288
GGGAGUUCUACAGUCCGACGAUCAGCAGCCAGCAUUCAGUGGCCUUGUCACCAAGCUCCACACCUCCUCCUGGUGCUGGCUUUGGUGACAUCACAAGGCCCCUCCAGGUGCAGGGGCUUCUGUUUGGCAGGCCUGGAAUUCUCGGGUGCCAA	0.23

Set 3
Target: Sal-like protein 4, full length isoform A (SALL4, Homo sapiens, UniProt Q9UJQ4, residues 1-1053)
UniProt Q9UJQ4, sequence (whole entry, looked up): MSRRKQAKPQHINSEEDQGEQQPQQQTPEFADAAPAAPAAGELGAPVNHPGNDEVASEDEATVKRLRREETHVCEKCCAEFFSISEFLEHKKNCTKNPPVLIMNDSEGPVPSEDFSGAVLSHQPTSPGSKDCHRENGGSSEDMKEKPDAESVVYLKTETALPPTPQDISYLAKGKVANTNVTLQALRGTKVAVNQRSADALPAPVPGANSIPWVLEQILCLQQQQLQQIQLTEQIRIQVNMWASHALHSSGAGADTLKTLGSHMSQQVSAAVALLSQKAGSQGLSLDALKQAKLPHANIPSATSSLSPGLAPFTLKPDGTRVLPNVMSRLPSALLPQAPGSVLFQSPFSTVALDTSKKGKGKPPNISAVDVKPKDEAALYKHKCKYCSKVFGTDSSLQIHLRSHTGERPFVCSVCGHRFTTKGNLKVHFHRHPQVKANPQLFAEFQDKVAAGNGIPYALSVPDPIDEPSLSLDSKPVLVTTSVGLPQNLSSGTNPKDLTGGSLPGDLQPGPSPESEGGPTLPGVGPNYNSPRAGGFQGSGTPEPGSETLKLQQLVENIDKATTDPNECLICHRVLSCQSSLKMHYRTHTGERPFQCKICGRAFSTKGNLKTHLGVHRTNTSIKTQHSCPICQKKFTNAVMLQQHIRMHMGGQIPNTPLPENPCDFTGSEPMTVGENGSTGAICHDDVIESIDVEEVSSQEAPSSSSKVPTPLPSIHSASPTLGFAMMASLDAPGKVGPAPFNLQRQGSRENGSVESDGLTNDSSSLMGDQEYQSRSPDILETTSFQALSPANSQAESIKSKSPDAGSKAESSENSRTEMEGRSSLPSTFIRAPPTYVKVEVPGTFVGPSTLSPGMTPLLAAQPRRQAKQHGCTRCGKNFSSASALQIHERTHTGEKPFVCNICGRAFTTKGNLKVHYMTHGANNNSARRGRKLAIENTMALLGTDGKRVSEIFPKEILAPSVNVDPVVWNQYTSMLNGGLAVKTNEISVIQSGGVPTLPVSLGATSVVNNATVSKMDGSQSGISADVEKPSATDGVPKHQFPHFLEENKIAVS
Technique: universal PBM
Molecule type: double-stranded DNA, one strand shown
Matrix: in vitro
Concentration: 600 nM
Setting: 8-mer, flanks averaged, mean of replicates
Direction: higher = stronger binding
Strand	E-score
CGTGGATC	-0.173
AGATACTG	0.0672
AATAACGC	0.137
CAAGGTTA	-0.00303
ACGAGCGT	-0.176
AAGGAACA	-0.0435
AGGCACTG	-0.0755
GGAGCTCA	-0.143

Set 4
Target: ABI1, truncated, D143A, DHFR fusion (Arabidopsis thaliana)
Technique: DHFR PCA, deep sequencing
Matrix: yeast
Setting: methotrexate growth selection, single substitutions
With: (+)-ABA 58 µM
Baseline: wild-type fitted maximum
Direction: higher = stronger binding
Starting sequence: PYL1, truncated, DHFR fusion (Arabidopsis thaliana); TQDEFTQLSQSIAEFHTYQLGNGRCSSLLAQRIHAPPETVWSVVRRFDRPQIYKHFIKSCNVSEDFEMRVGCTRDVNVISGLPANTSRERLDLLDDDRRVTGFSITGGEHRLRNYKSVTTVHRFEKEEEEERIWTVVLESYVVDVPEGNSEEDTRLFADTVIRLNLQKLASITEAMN; partner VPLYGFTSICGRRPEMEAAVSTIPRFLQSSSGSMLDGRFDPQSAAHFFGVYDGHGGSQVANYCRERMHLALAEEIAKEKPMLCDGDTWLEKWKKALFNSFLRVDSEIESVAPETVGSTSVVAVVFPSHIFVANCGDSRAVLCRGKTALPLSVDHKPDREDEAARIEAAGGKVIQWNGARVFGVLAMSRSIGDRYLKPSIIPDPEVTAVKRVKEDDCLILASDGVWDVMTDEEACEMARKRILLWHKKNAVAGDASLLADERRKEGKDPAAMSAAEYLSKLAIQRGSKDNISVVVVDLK
Substitution	relative binding score
R74S	-9.2%
T101Y	67.4%
E109L	66.2%
S42L	63.9%
G23F	64.7%
T39K	88%
D144Y	12.8%
L8I	63.4%

Set 5
Target: CCNE2, cyclin fold, Cln2 fusion (human)
Technique: yeast growth competition, sequencing
Matrix: yeast
Setting: strong parent motif
Baseline: not given
Direction: higher = stronger binding
Starting sequence: viral docking peptide; YKVKRRLVFGADD
Substitution	normalised enrichment score
YKGKRRLVFGADD [V3G]	1.4
YKVKRWLVFGADD [R6W]	1.51
YKVKRRLVFGALD [D12L]	4.7
YHVKRRLVFGADD [K2H]	6.36
YKVKRRLQFGADD [V8Q]	5.43
YKLKRRLVFGADD [V3L]	0.865
YKVKRRLKFGADD [V8K]	5.05
YKVKRRLVGGADD [F9G]	0.582
YKVKRRLVFGAVD [D12V]	5.48
YKVKRRLVFGAND [D12N]	5.62
YMVKRRLVFGADD [K2M]	5.35
YKVKHRLVFGADD [R5H]	0.779
YKYKRRLVFGADD [V3Y]	3.56
YKVKRRGVFGADD [L7G]	0.513
YKVKRRLVFGAPD [D12P]	5.61
YKVMRRLVFGADD [K4M]	1.38
YKVKRRLVFYADD [G10Y]	4.44
YKVKRRLVFGMDD [A11M]	5.55
YKVKRRLVKGADD [F9K]	0.167
YKVKRRLAFGADD [V8A]	3.77
YKVKRRLVFGWDD [A11W]	4.95
YKVQRRLVFGADD [K4Q]	3.12
YKVKLRLVFGADD [R5L]	0.0561
YKVKRRHVFGADD [L7H]	0.498
YKVKRRLTFGADD [V8T]	5.38

Repeated from above (set 5):
Substitution	normalised enrichment score
YKVKRRLVFGMDD [A11M]	5.55
YKVKRRLVFGAPD [D12P]	5.61
YKVQRRLVFGADD [K4Q]	3.12
YKVMRRLVFGADD [K4M]	1.38
YKYKRRLVFGADD [V3Y]	3.56
